Results collected from several papers.
Compare with care: the assays were run in different laboratories. Numbers after ± are the reported error.

Cc1sc2ncn(CC(=O)N3CCCC3)c(=O)c2c1-c1cccc(Br)c1 — γ3 conductance level area (NMDA receptor, mouse; single-channel current, outside-out patch; cortical neurons; 50 µM, with: Ca2+ 0.5 mM): 7%
O=C(c1ccc(F)cc1)N1CCCC(c2nc(-c3cccs3)no2)C1 (stereo not drawn) — EC50 (mGluR5; calcium fluorescence, positive allosteric modulator; mGluR5-expressing cells; with: glutamate EC20): 0.17 ± 0.028 µM
COc1ccc(C(=O)c2c(C(=O)NCCCN(C)C)oc3ccc(Cl)cc3c2=O)cc1OC — fold activation (human GPCRs other than GHSR; β-arrestin-2 recruitment, Tango; 1 µM, 320 receptors tested; relative to: baseline, maximum at any other receptor): < 3 fold
COc1ccc(N2C(=O)C=CC2=O)cc1 — DPP3 expression (DPP3 (Candida albicans); GFP fluorescence; Candida albicans, BWP17 DPP3-GFP; 2 µg/mL, 4 h; relative to: untreated): 2.55 fold
CC[C@H](C)[C@H](NC(=O)[C@H](C)NC(=O)[C@@H](NC(=O)[C@@H](NC(=O)[C@H](CC(C)C)NC(=O)[C@H](CCCCN)NC(=O)[C@@H](N)CCCCN)[C@@H](C)CC)[C@@H](C)O)C(=O)N[C@@H](CC(C)C)C(=O)N[C@@H](CCCCN)C(=O)N[C@@H](CCCCN)C(=O)N[C@H](C(=O)N[C@@H](CCCNC(=N)N)C(=O)N[C@@H](CCC(=O)O)C(=O)N[C@@H](CCCCN)C(=O)N[C@@H](CCCCN)C(=O)N[C@@H](CCCCN)C(=O)N[C@@H](CCC(=O)O)C(=O)N[C@@H](CS)C(=O)N[C@@H](CC(C)C)C(=O)N[C@H](C(=O)O)C(C)C)[C@@H](C)O — rate constant kOI (voltage-gated sodium channel; resurgent sodium current, kinetic model fit; mouse CA3 neurons; 200 µM, membrane potential -30 mV): 147 s⁻¹
O=C(Nc1cc(C(F)(F)F)cc(C(F)(F)F)c1)c1cc(Cl)ccc1O — AR protein level (androgen receptor; Western blot; CWR22Rv1; 1 µM, 16 h): inhibited
CCCNCC(=O)O — midpoint concentration (DNA; binding, UV-vis absorption titration): 952 µM
Cc1cc(C)nc(NC(=S)N2CCN(Cc3ccc(C(F)(F)F)cc3)CC2)c1 — inhibition (panel of other dehydrogenases; enzyme activity; concentration not given): inactive
CNC(=O)C1CCN(c2cc(C)c(F)cc2NC(=O)c2ccc(-c3cc(O)ccc3C)c(C)c2)CC1 — inhibitory concentration (human EPHA2/EPHA4; phosphorylation, inhibitor, Western blot; A673; with: EFNA5 0.5 µg/mL; lowest concentration): 1 µM
Cn1c(=O)oc2ccc(-c3ccc(CC(C#N)NC(=O)C4CNCCCO4)c(F)c3)cc21 (stereo not drawn) — reduction in NE activity (neutrophil elastase (human); inhibitor; human, whole blood; 20 mg once daily, 31 days after discontinuation, normalised to neutrophil count): 64.9%
CCCCCCCCCCCCCC(=O)N[C@@H](CO)C(=O)N[C@H](C(=O)N[C@@H](Cc1ccc(O)cc1)C(=O)N[C@@H](CCCNC(=N)N)C(=O)N[C@@H](CCCNC(=N)N)C(=O)NCC(=O)N[C@@H](C)C(=O)N[C@@H](CCCNC(=N)N)C(=O)N[C@@H](CCCNC(=N)N)C(=O)N[C@@H](Cc1c[nH]c2ccccc12)C(=O)N[C@@H](CCCNC(=N)N)C(=O)N[C@@H](CCCCN)C(=O)N[C@@H](CC(C)C)C(=O)O)[C@@H](C)CC — PKMζ-mediated AMPAR potentiation (PKMζ; Sprague-Dawley rat, CA1 neurons, hippocampal slices; 5 µM, 1 min, with: PKMζ 10 nM in pipette): inhibited
CC[C@H](C)[C@H](NC(=O)[C@H](Cc1ccccc1)NC(=O)[C@@H](NC(=O)[C@@H](NC(=O)[C@H](CC(C)C)NC(=O)[C@H](CCCCN)NC(=O)[C@@H](N)CCCCN)[C@@H](C)CC)[C@@H](C)O)C(=O)N[C@@H](CC(C)C)C(=O)N[C@@H](CCCCN)C(=O)N[C@@H](CCCCN)C(=O)N[C@H](C(=O)N[C@@H](CCCNC(=N)N)C(=O)N[C@@H](CCC(=O)O)C(=O)N[C@@H](CCCCN)C(=O)N[C@@H](CCCCN)C(=O)N[C@@H](CCCCN)C(=O)N[C@@H](CCC(=O)O)C(=O)N[C@@H](CS)C(=O)N[C@@H](CC(C)C)C(=O)N[C@H](C(=O)O)C(C)C)[C@@H](C)O — rate constant kOI (voltage-gated sodium channel; resurgent sodium current, kinetic model fit; mouse CA3 neurons; 200 µM, membrane potential -30 mV): 88 s⁻¹
